{"data": "Results of several laboratories", "note": "A part holds a random share of what one study measured. Positions count from the first letter of the parent shown."}
{"data": "Series 1", "target": "Centromere-binding protein 1, full length, N-terminal tag (CBF1, Saccharomyces cerevisiae, UniProt P17106, residues 1-351)", "method": "protein-binding microarray", "molecule type": "double-stranded DNA, one strand shown", "medium": "in vitro", "tested at": "0.8 µM", "notes": "whole 60-bp probe, no competitor", "reading": "higher = stronger binding", "sequence of UniProt P17106 (whole entry, looked up)": "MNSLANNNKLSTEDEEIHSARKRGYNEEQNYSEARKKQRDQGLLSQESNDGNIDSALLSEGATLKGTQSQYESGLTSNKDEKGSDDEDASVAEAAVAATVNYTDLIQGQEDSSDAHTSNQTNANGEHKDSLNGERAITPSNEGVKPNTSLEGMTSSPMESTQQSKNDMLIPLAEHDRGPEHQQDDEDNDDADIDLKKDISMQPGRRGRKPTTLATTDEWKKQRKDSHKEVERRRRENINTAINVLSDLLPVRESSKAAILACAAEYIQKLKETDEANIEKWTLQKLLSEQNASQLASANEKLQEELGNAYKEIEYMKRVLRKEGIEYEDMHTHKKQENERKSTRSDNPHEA"}
{"Strand": "GAAGGGACGATAACCATCAGCAGGAAAAACGGTTAGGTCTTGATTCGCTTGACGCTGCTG", "fluorescence intensity [a.u.]": 522}
{"Strand": "GAATGTAACCTACATCATGCGTAGGCTTAATATTAGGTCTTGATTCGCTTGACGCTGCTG", "fluorescence intensity [a.u.]": 522}
{"Strand": "TGTACGAAGCTATATGGTGGTGTTATAGTAGTTAGGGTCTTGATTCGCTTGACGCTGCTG", "fluorescence intensity [a.u.]": 532}
{"Strand": "GAAGAAGAAGAAAAACATCAGGGACAGATGAAATAGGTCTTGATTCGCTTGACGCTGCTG", "fluorescence intensity [a.u.]": 542}
{"Strand": "GAAGGTCTCGAAGAACATCAGCACCACGCCCGCTAGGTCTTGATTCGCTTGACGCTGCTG", "fluorescence intensity [a.u.]": 554}
{"Strand": "CTAACAGCGCGCGGGCACGAGAAAGCTGCCCTATTCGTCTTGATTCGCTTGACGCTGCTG", "fluorescence intensity [a.u.]": 679}
{"Strand": "TGTACGAAGCTATCTCACGCATCTATAGTAGTTAGGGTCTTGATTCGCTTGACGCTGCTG", "fluorescence intensity [a.u.]": 507}
{"Strand": "GAAACTCATTAAAGCCACCTGACTCAAGTCTTCTAGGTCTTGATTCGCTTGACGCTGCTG", "fluorescence intensity [a.u.]": 1140}
{"Strand": "CTATTACTCCATCATCTGACACCTAGAGACGTATTCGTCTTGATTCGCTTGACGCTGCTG", "fluorescence intensity [a.u.]": 1060}
{"Strand": "GAACCGGGTTTTCATCAGGAGATGAGAGTTCTTTAGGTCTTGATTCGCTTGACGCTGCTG", "fluorescence intensity [a.u.]": 511}
{"Strand": "CTAGCAACTGAACTTCTGATGTTTACTTTTTGATTCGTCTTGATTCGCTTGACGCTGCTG", "fluorescence intensity [a.u.]": 526}
{"Strand": "TGTACGAAGCTATCTCACCTTATTATAGTAGTTAGGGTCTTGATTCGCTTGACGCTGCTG", "fluorescence intensity [a.u.]": 535}
{"data": "Series 2", "target": "Histone acetyltransferase KAT6A, both winged helices, GST fusion (KAT6A, Homo sapiens, UniProt Q92794, residues 1-181)", "method": "protein binding microarray", "molecule type": "double-stranded DNA, one strand shown", "medium": "in vitro", "tested at": "not given", "notes": "8-mer, flanks averaged, mean of 2 arrays, mostly near background", "reference": "not given", "reading": "higher = stronger binding", "Target sequence (chain)": "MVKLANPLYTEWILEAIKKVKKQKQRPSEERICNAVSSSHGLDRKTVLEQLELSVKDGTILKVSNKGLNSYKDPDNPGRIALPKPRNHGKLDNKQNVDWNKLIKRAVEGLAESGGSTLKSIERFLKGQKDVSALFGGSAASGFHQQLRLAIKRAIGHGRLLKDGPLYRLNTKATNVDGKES"}
{"Strand": "ATGCAAAA", "E-score": -0.0726}
{"Strand": "ACTCAGCG", "E-score": 0.103}
{"Strand": "ACTCTATG", "E-score": -0.0324}
{"Strand": "CACAAACG", "E-score": 0.0948}
{"Strand": "AGAACGAT", "E-score": 0.004}
{"Strand": "AACCGCTG", "E-score": 0.0569}
{"Strand": "AGCCTGGC", "E-score": -0.201}
{"Strand": "CTGAGAAC", "E-score": -0.115}
{"Strand": "GCGAGAAA", "E-score": 0.0109}
{"Strand": "ACAGCACC", "E-score": 0.01}
{"Strand": "CCGTATAA", "E-score": 0.243}
{"Strand": "ATCAGAAG", "E-score": -0.0677}
{"Strand": "ATGATCTA", "E-score": -0.0504}
{"Strand": "GATGCTCC", "E-score": 0.0618}
{"Strand": "TCCCGGCA", "E-score": 0.276}
{"Strand": "GAATCGGC", "E-score": 0.138}
{"Strand": "CCCATGCG", "E-score": 0.114}
{"Strand": "AGCGATCC", "E-score": 0.108}
{"data": "Series 3", "target": "ABI1, truncated, D143A, DHFR fusion (Arabidopsis thaliana)", "method": "DHFR PCA, deep sequencing", "medium": "yeast", "notes": "methotrexate growth selection, single substitutions", "with": "(+)-ABA 17 µM", "reference": "wild-type fitted maximum", "reading": "higher = stronger binding", "starting sequence": "PYL1, truncated, DHFR fusion (Arabidopsis thaliana); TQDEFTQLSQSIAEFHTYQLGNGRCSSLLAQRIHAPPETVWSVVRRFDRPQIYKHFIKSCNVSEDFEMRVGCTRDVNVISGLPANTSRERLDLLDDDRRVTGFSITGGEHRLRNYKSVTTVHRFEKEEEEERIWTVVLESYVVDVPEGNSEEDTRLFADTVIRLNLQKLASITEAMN"}
{"Variant": "S26K", "relative binding score": "58.4%"}
{"Variant": "E38N", "relative binding score": "58.2%"}
{"Variant": "N149Q", "relative binding score": "30.9%"}
{"Variant": "S27A", "relative binding score": "62.8%"}
{"Variant": "A158P", "relative binding score": "-15.5%"}
{"Variant": "C60P", "relative binding score": "0.892%"}
{"Variant": "E64P", "relative binding score": "87.8%"}
{"Variant": "L169C", "relative binding score": "-0.631%"}
{"Variant": "M68C", "relative binding score": "78.7%"}
{"Variant": "T6C", "relative binding score": "82.4%"}
{"Variant": "E128I", "relative binding score": "76.6%"}
{"Variant": "E130W", "relative binding score": "58%"}
{"Variant": "L93V", "relative binding score": "99.3%"}
{"Variant": "C25Q", "relative binding score": "8.55%"}
{"Variant": "N177F", "relative binding score": "98.5%"}
{"data": "Series 4", "target": "Ras GTPase-activating protein-binding protein 1, RRM domain (G3BP1, Homo sapiens, UniProt Q13283)", "method": "RNA Bind-n-Seq", "molecule type": "RNA", "medium": "in vitro", "tested at": "1 µM", "notes": "whole 134-nt RNA, ends assumed", "with": "150 mM KCl", "reference": "input library", "reading": "higher = stronger binding", "sequence of UniProt Q13283 (whole entry, looked up)": "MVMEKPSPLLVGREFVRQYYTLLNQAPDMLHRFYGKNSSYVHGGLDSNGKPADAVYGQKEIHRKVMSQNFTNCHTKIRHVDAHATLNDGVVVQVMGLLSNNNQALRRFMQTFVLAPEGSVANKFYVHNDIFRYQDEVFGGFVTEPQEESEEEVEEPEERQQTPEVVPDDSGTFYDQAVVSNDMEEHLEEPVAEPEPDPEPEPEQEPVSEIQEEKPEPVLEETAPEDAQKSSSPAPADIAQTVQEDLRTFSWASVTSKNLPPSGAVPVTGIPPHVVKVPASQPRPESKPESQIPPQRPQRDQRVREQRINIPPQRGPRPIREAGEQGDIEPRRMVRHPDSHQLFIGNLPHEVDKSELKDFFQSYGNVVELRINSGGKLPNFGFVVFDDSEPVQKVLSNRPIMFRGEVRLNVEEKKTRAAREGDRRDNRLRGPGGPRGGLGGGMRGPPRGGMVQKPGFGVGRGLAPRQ"}
{"Strand": "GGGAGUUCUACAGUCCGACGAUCCAAGUCCUGUGCUACACAUCGUAUGUACCGAAUCGGGGUUUGGUUUGGUUUGGGGAAAGUAUUAUGUUACGCCGUUCGGAUCUGCACUUCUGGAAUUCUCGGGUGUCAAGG", "log2 enrichment": -0.342}
{"Strand": "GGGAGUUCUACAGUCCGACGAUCCCUCAAGUCCUGUGCUACACAUCGUAUGUACCGAAUCGGAAAAAGGUGGUGGAAAGUAUUAUGUUACGCCGUUCGGAUCUGCACUUCCAGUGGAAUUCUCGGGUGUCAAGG", "log2 enrichment": -0.137}
{"Strand": "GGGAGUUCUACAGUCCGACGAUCUCCUCAAGUCCUGUGCUACACAUCGUAUGUACCGAAUCGGGUGGGGUGGUGGAAAGUAUUAUGUUACGCCGUUCGGAUCUGCACUUCCAGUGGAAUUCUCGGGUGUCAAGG", "log2 enrichment": -0.127}
{"Strand": "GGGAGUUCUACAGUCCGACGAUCGCAGGAAGUAAAAACACAUGGAAAUGCUUCGGAUAGUGGCAGGGGUGGGGGUUGCUAAGGAAAGGGUGGGAUGGGAGUGGGUAAAGAGUUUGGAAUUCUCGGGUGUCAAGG", "log2 enrichment": 1.36}
{"Strand": "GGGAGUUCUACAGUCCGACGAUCUGGGAGGUGGAUAUUGUUUAUUUUUUUAGCUCAUUUCCAGGGGUGGGAAUUUUUUUUUAAUAUGUGUCAUGAAUAAAGUUGUUUUUGAAAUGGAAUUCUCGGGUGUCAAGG", "log2 enrichment": 2.08}
{"Strand": "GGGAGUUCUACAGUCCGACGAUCCUCAAGUCCUGUGCUACACAUCGUAUGUACCGAAUCGGCCCGGCCCGGGCCCGGAAAGUAUUAUGUUACGCCGUUCGGAUCUGCACUUCCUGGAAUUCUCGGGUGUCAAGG", "log2 enrichment": -0.614}
{"Strand": "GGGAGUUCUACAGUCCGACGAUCCAAGUCCUGUGCUACACAUCGUAUGUACCGAAUCGGGUUUUUGGGAAAGGGAGGGAAAGUAUUAUGUUACGCCGUUCGGAUCUGCACUUCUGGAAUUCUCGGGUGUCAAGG", "log2 enrichment": 0.606}
{"Strand": "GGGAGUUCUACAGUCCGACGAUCCAAGUCCUGUGCUACACAUCGUAUGUACCGAAUCGGUUUGGUUUUUUUGGAAAGGAAAGUAUUAUGUUACGCCGUUCGGAUCUGCACUUCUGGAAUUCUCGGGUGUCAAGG", "log2 enrichment": -0.0943}
{"Strand": "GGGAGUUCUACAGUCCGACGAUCUGGCCCUGGUGGCAUGCGGGGAGGAAGAGGUGACCUCAUGGAUCGUGGUGGUCCCGGUGGAAUGUUCAGAGGUGGCCGUGGUGGAGACAGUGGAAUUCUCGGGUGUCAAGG", "log2 enrichment": 0.756}
{"Strand": "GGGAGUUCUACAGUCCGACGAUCCAAGUCCUGUGCUACACAUCGUAUGUACCGAAUCGGAAAAAGGAGGUUUUUUUGGAAAGUAUUAUGUUACGCCGUUCGGAUCUGCACUUCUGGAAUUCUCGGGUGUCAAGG", "log2 enrichment": -0.0125}
{"data": "Series 5", "target": "CCND3, cyclin fold, Cln2 fusion (human)", "method": "yeast growth competition, sequencing", "medium": "yeast", "notes": "weak parent motif", "reference": "not given", "reading": "higher = stronger binding", "starting sequence": "PKN2 docking peptide (human); VSAVQKLDFSDTM"}
{"Variant": "VLAVQKLDFSDTM [S2L]", "normalised enrichment score": 0.0947}
{"Variant": "VSAVQKLDFSDYM [T12Y]", "normalised enrichment score": 0.18}
{"Variant": "VSAVQKWDFSDTM [L7W]", "normalised enrichment score": 0.112}
{"Variant": "VSADQKLDFSDTM [V4D]", "normalised enrichment score": 0.00971}
{"Variant": "VSAVQKLCFSDTM [D8C]", "normalised enrichment score": 0.112}
{"Variant": "VSAVQKLDFSDTF [M13F]", "normalised enrichment score": 0.0974}
{"Variant": "VQAVQKLDFSDTM [S2Q]", "normalised enrichment score": 0.137}
{"Variant": "WSAVQKLDFSDTM [V1W]", "normalised enrichment score": 0.125}
{"Variant": "VSFVQKLDFSDTM [A3F]", "normalised enrichment score": 0.0626}
{"Variant": "VSMVQKLDFSDTM [A3M]", "normalised enrichment score": 0.0859}
{"Variant": "ASAVQKLDFSDTM [V1A]", "normalised enrichment score": 0.0799}
{"Variant": "VSAVQKLDFSDCM [T12C]", "normalised enrichment score": 0.193}
{"Variant": "VSATQKLDFSDTM [V4T]", "normalised enrichment score": 0.0678}
{"Variant": "VSAVQKLDFSVTM [D11V]", "normalised enrichment score": 0.128}
{"Variant": "VSAVQLLDFSDTM [K6L]", "normalised enrichment score": 0.0913}
{"Variant": "VSAVQKLDFMDTM [S10M]", "normalised enrichment score": 0.124}
{"Variant": "VSAVQKLDYSDTM [F9Y]", "normalised enrichment score": 0.131}
{"Variant": "VSKVQKLDFSDTM [A3K]", "normalised enrichment score": 0.0246}
{"Variant": "VSALQKLDFSDTM [V4L]", "normalised enrichment score": 0.121}
